Experimental data collected from several papers.
Numbers after ± are the reported error.

Compound = O=C1CC(c2ccc(O)cc2)Oc2cc3oc4cc(O)c(O)cc4c3c(O)c21 (racemic); test = ABTS scavenging, absorbance; endpoint = EC50; result = 1110 µM
Compound = Cc1cc(-c2ccc(NC(=O)[C@H](CCCCNC(=O)CCOCCOCCC(=O)N[C@H](Cc3ccccc3)C(=O)N[C@H]3CSSC[C@@H](C(=O)N[C@H](C(=O)O)[C@@H](C)O)NC(=O)[C@H]([C@@H](C)O)NC(=O)[C@H](CCCCN)NC(=O)[C@@H](Cc4c[nH]c5ccccc45)NC(=O)[C@H](Cc4ccc(O)cc4)NC3=O)NC(=O)CN3CCN(CC(=O)O)CCN(CC(=O)O)CCN(CC(=O)O)CC3)c(C)c2)ccc1N=Nc1ccc2c(S(=O)(=O)O)cc(S(=O)(=O)O)c(N)c2c1O [lutetium-177 labelled]; test system = patients with metastatic neuroendocrine tumours, all metastatic lesions; scale = reference: compound over 177Lu-EB-TATE; endpoint = residence time ratio; result = 2.5 fold
Compound = O=Cc1c(O)ccc2ccccc12; tested on = HUVEC; test = RNA sequencing, item: HMOX1; setting = 75 µM, 24 h; scale = reference: DMSO; endpoint = log2 fold change; result = 2.99
Compound = CCCCC1NC(=O)c2ccccc21 (racemic); test = thrombosis; test system = mouse, carrageenan-induced thrombosis; setting = oral, 50 mg/kg daily for 2 days, 24 h after carrageenan; endpoint = black tail occurrence; result = 30%
Compound = C=C(c1cc(F)c(C(=O)O)c(F)c1)c1cc2c(cc1C)C(C)(C)CCC2(C)C; test = RNA sequencing, item: Cga mRNA; test system = rat, brain; setting = dose not given, 24 h, single dose; scale = reference: vehicle; endpoint = log2 fold change; result = 2.91
Compound = COc1cc(Cn2ccc3cc(C(=O)NCC45CC6CC(CC(C6)C4)C5)ccc32)ccc1C(=O)NO; test = immunohistochemistry; test system = 5xFAD mice, brain; setting = intraperitoneal, 10 mg/kg daily, 2 months; scale = reference: vehicle; endpoint = amyloid plaque area; result = decreased
Compound = C[n+]1cn(C2OC(COP(=O)(O)OP(=O)([O-])C(Cl)(Cl)P(=O)(O)O)C(O)C2O)c2nc(N)nc(O)c21 (stereo not drawn); test = cap-dependent translation, inhibitor; test system = rabbit reticulocyte lysate; setting = preincubated 60 min in lysate; endpoint = IC50; result = 1.37 ± 0.01 µM
Compound = CCCCCCCCCCCCCCCC(=O)NCCCCCCNC(=O)C(CCCCNC(=O)CCN1C(=O)CC(SC[C@H](NC(=O)[C@H](CCCNC(=N)N)NC(=O)CNC(=O)[C@H](CCCCN)NC(=O)[C@@H](NC(=O)[C@H](CC(C)C)NC(=O)[C@H](Cc2c[nH]c3ccccc23)NC(=O)[C@H](C)NC(=O)[C@@H](NC(=O)[C@H](Cc2ccccc2)NC(=O)[C@H](CCC(=O)O)NC(=O)[C@H](CCCCN)NC(=O)[C@H](C)NC(=O)[C@H](C)NC(=O)[C@H](CCC(N)=O)NC(=O)CNC(=O)[C@H](CCC(=O)O)NC(=O)[C@H](CC(C)C)NC(=O)[C@H](Cc2ccc(O)cc2)NC(=O)[C@H](CO)NC(=O)[C@H](CO)NC(=O)[C@@H](NC(=O)[C@H](CC(=O)O)NC(=O)[C@H](CO)NC(=O)[C@@H](NC(=O)[C@H](Cc2ccccc2)NC(=O)[C@@H](NC(=O)CNC(=O)[C@H](CCC(=O)O)NC(=O)CNC(=O)[C@@H](N)Cc2c[nH]cn2)[C@@H](C)O)[C@@H](C)O)C(C)C)[C@@H](C)CC)C(C)C)C(N)=O)C1=O)NC(=O)CCN1C(=O)CC(SC[C@H](NC(=O)[C@H](CCCNC(=N)N)NC(=O)CNC(=O)[C@H](CCCCN)NC(=O)[C@@H](NC(=O)[C@H](CC(C)C)NC(=O)[C@H](Cc2c[nH]c3ccccc23)NC(=O)[C@H](C)NC(=O)[C@@H](NC(=O)[C@H](Cc2ccccc2)NC(=O)[C@H](CCC(=O)O)NC(=O)[C@H](CCCCN)NC(=O)[C@H](C)NC(=O)[C@H](C)NC(=O)[C@H](CCC(N)=O)NC(=O)CNC(=O)[C@H](CCC(=O)O)NC(=O)[C@H](CC(C)C)NC(=O)[C@H](Cc2ccc(O)cc2)NC(=O)[C@H](CO)NC(=O)[C@H](CO)NC(=O)[C@@H](NC(=O)[C@H](CC(=O)O)NC(=O)[C@H](CO)NC(=O)[C@@H](NC(=O)[C@H](Cc2ccccc2)NC(=O)[C@@H](NC(=O)CNC(=O)[C@H](CCC(=O)O)NC(=O)CNC(=O)[C@@H](N)Cc2c[nH]cn2)[C@@H](C)O)[C@@H](C)O)C(C)C)[C@@H](C)CC)C(C)C)C(N)=O)C1=O (stereo partly drawn); test system = db/db mice non-fasted; setting = subcutaneous, 100 nmol/kg; endpoint = duration of glucose lowering; result = ~36 h
Compound = N=C(N)c1ccc(-c2ccc(-c3ccco3)o2)nc1; tested on = Salmonella typhimurium; test = liquid broth OD; test system = TA1535; setting = 50 µM, 15 h; scale = reference: growth; endpoint = viability; result = 100 ± 8.9%
Compound = NS(=O)(=O)Nc1ncnc(OCCOc2ncc(Br)cn2)c1-c1ccc(Br)cc1; test = Michaelis-Menten plot, item: compound formation; test system = male Sprague-Dawley rat, liver microsomes; setting = 1500 mg/kg daily, 4 weeks; endpoint = Km; result = 2.4 ± 0.7 µM
Compound = NCC(=O)N1CCC[C@H]1C(=O)NCC(=O)NCC(=O)O; test = diketopiperazine formation, Arrhenius plot, ESI-MS; test system = 1-propanol; setting = 70, 80, 90 °C, 0.5% acetic acid; endpoint = activation energy; result = 18.6 ± 1.91 kcal/mol
Compound = CCCC[C@H](NC(=O)[C@@H](NC(=O)[C@H](CC(=O)O)NC(=O)[C@H](CCC(N)=O)NC(=O)[C@H](CC(C)C)NC(=O)[C@H](CC(C)C)NC(=O)[C@H](CCCN)NC(=O)[C@H](CCCNC(=N)N)NC(=O)[C@H](C)NC(=O)[C@H](CO)NC(=O)[C@H](CC(C)C)NC(=O)[C@H](CCC(N)=O)NC(=O)[C@H](CC)NC(=O)[C@H](CC(C)C)NC(=O)[C@@H](NC(=O)[C@H](CCCN)NC(=O)[C@H](CCCNC(=N)N)NC(=O)[C@H](Cc1ccc(O)cc1)NC(=O)[C@H](CO)NC(=O)[C@H](CC(N)=O)NC(=O)[C@@H](NC(=O)[C@H](Cc1c(F)c(F)c(F)c(F)c1F)NC(=O)[C@@H](NC(=O)[C@H](C)NC(=O)[C@H](CC(=O)O)NC(=O)[C@@H](C)NC(=O)CCc1ccc(O)cc1)[C@@H](C)CC)[C@@H](C)O)C(C)C)[C@@H](C)CC)C(=O)N[C@@H](CO)C(=O)N[C@@H](CCCNC(=N)N)C(=O)NCCCC(N)=O; test = GH release; test system = rat, male, serum; setting = subcutaneous, 3 µg/kg, 30 min; scale = reference: reference GHRH agonist JI-38; endpoint = relative potency; result = 1.36
Compound = Cc1cc(O)c(C=O)c2c1C(=O)Oc1c(CO)c(O)c3c(c1O2)C(O)OC3=O (stereo not drawn); test system = rat, male, streptozotocin-induced diabetes, cauda epididymis; setting = 10 mg/kg, 9 weeks; endpoint = sperm with detached head; result = 5.83 ± 0.75%
Compound = CCCC[C@H](NC(=O)[C@@H](NC(=O)[C@H](CC(=O)O)NC(=O)[C@H](CCC(N)=O)NC(=O)[C@H](CC(C)C)NC(=O)[C@H](CC(C)C)NC(=O)[C@H](CCCN)NC(=O)[C@H](CCCNC(=N)N)NC(=O)[C@H](C)NC(=O)[C@H](CO)NC(=O)[C@H](CC(C)C)NC(=O)[C@H](CCC(N)=O)NC(=O)[C@H](CC)NC(=O)[C@H](CC(C)C)NC(=O)[C@@H](NC(=O)[C@H](CCCN)NC(=O)[C@H](CCCNC(=N)N)NC(=O)[C@H](Cc1ccc(O)cc1)NC(=O)[C@H](CO)NC(=O)[C@H](CC(N)=O)NC(=O)[C@@H](NC(=O)[C@H](Cc1ccccc1)NC(=O)[C@@H](NC(=O)[C@H](C)NC(=O)[C@H](CC(=O)O)NC(=O)[C@@H](C)NC(=O)[C@H](Cc1ccc(O)cc1)NC)[C@@H](C)CC)[C@@H](C)O)C(C)C)[C@@H](C)CC)C(=O)N[C@@H](CC(=O)O)C(=O)NCCCCNC(=N)N; test = GH release; test system = male rat, serum; setting = subcutaneous, dose not given, 15 min; scale = reference: GHRH(1-29)NH2; endpoint = relative potency; result = 68.1
Compound = CC(=O)N[C@@H](CC(N)=O)C(=O)NCC(=O)N[C@@H](C)C(=O)N[C@@H](C)C(N)=O; tested on = Asn-Gly peptide isomerisation to succinimide; test = 1H NMR time course; setting = pH 7.8, 55 °C; endpoint = rate constant k1; result = 0.267 h⁻¹
Compound = Cc1nn(-c2ccc(S(=O)(=O)N[C@H](CO)CC(C)C)cc2)c2nn3nnnc3nc12; tested on = PC-3; test = PI/Hoechst staining; setting = 2 µM, 24 h; endpoint = necrotic cells; result = 51 ± 1.4%
Compound = COc1cccc(OCCN2CCC[C@H](CN3CCc4cc(OC)c(OC)cc4CC3=O)C2)c1; test system = VTA dopamine neurons, stress-naive male mice; setting = intraperitoneal, 1 mg/kg; scale = reference: baseline; endpoint = burst firing (%SWB); result = no effect
Compound = CCCC[C@H](NC(=O)[C@@H](NC(=O)[C@H](CC(=O)O)NC(=O)[C@H](CCC(N)=O)NC(=O)[C@H](CC(C)C)NC(=O)[C@H](CC(C)C)NC(=O)[C@H](CCCN)NC(=O)[C@H](CCCNC(=N)N)NC(=O)[C@H](C)NC(=O)[C@H](CO)NC(=O)[C@H](CC(C)C)NC(=O)[C@H](CCC(N)=O)NC(=O)[C@H](CC)NC(=O)[C@H](CC(C)C)NC(=O)[C@@H](NC(=O)[C@H](CCCN)NC(=O)[C@H](CCCNC(=N)N)NC(=O)[C@H](Cc1ccc(O)cc1)NC(=O)[C@H](CO)NC(=O)[C@H](CCC(N)=O)NC(=O)[C@@H](NC(=O)[C@H](Cc1ccccc1)NC(=O)[C@@H](NC(=O)[C@H](C)NC(=O)[C@H](CC(=O)O)NC(=O)[C@H](C)NC(=O)CCc1ccc(O)cc1)[C@@H](C)CC)[C@@H](C)O)C(C)C)[C@@H](C)CC)C(=O)N[C@@H](CC(=O)O)C(=O)N[C@@H](CCCNC(=N)N)C(=O)NC; test = GH release; test system = rat, male, serum; setting = subcutaneous, 3 µg/kg, 30 min; scale = reference: reference GHRH agonist JI-38; endpoint = relative potency; result = 1.09
Compound = Cc1nc(C)c(C=[N+]([O-])C(C)(C)C)nc1C; test = Western blot, item: PGC-1α; test system = mouse, MPTP model, substantia nigra cytosol; setting = 90 mg/kg; endpoint = protein level increase; result = 41.3%
Compound = O=C([O-])CN1CCN(CC(=O)[O-])CCN(C(CCC(=O)NC(Cc2c[nH]c3ccc(O)cc23)C(=O)NCCc2c[nH]c3ccc(O)cc23)C(=O)O)CCN(CC(=O)[O-])CC1.[Gd+3] (stereo not drawn); test = MR imaging; test system = mice CFA inflammation; scale = reference: DOTA-Gd; endpoint = contrast-to-noise ratio; result = 4 to 10 fold
Compound = O=C([O-])CN1CCN(CC(=O)[O-])CCN(CC(=O)NC[C@H]2CC[C@H](C(=O)N[C@H](Cc3cnc4ccccc4c3)C(=O)NCCCC[C@H](NC(=O)N[C@@H](CCC(=O)O)C(=O)O)C(=O)O)CC2)CCN(CC(=O)[O-])CC1.[64Cu+2]; test = gamma counting; test system = prostate cancer patients, prostate cancer biopsy cores; setting = dose not given, 24 h post-injection; endpoint = median radioactivity; result = 134000 CPM
Compound = Cn1c(=O)oc2ccc(-c3ccc(CC(C#N)NC(=O)C4CNCCCO4)c(F)c3)cc21 (stereo not drawn); test system = human; setting = dose not given, single ascending doses, all subjects; endpoint = subjects with ALT increase; result = 6.7%
Compound = CC(C)C[C@H](N)C(=O)N1CCC[C@H]1C(=O)NCC(=O)NCC(=O)O; test = diketopiperazine formation, Arrhenius plot, ESI-MS; test system = 1-propanol; setting = 70, 80, 90 °C, 0.5% acetic acid; endpoint = activation energy; result = 24.9 ± 1.67 kcal/mol
Compound = CC1=C(C2=C(C)C(=O)c3c(cc(O)c(O)c3Cc3ccccc3)C2=O)C(=O)c2cc(O)c(O)c(Cc3ccccc3)c2C1=O (single isomer, unassigned); test = spleen shrinkage; test system = B6 Bcl-2-transgenic mice; setting = ip, 5 µmol/kg; scale = reference: maximum 50%; endpoint = maximal activity; result = ~54%
Compound = O=C1c2c(O)cc(O)c(-c3ccc(O)c(O)c3)c2OC1Cc1ccc(O)c(O)c1 (stereo not drawn); test = ABTS scavenging, absorbance; endpoint = EC50; result = 1130 µM
Compound = COc1cc(CNC(=O)C[C@H](C)CCC=C(C)C)ccc1OCc1cn(-c2ccc(Cl)c(Cl)c2)nn1; tested on = 786-0; test = SRB; setting = 10 µM, 48 h; endpoint = growth; result = 80.4%
Compound = [2H]C([2H])([2H])C(c1cc2nnc(-c3cc(F)ccc3F)n2nc1OCc1ncnn1C)(C([2H])([2H])[2H])C([2H])([2H])[2H]; test system = amygdala-kindled Wistar rats, cortex; setting = oral, 100 mg/kg, 2 h before stimulation; scale = reference: baseline; endpoint = afterdischarge duration change; result = -76%

Some of these lines once more:
Compound = CCCCC1NC(=O)c2ccccc21 (racemic); test = thrombosis; test system = mouse, carrageenan-induced thrombosis; setting = oral, 50 mg/kg daily for 2 days, 24 h after carrageenan; endpoint = black tail occurrence; result = 30%
Compound = C=C(c1cc(F)c(C(=O)O)c(F)c1)c1cc2c(cc1C)C(C)(C)CCC2(C)C; test = RNA sequencing, item: Cga mRNA; test system = rat, brain; setting = dose not given, 24 h, single dose; scale = reference: vehicle; endpoint = log2 fold change; result = 2.91
Compound = COc1cc(Cn2ccc3cc(C(=O)NCC45CC6CC(CC(C6)C4)C5)ccc32)ccc1C(=O)NO; test = immunohistochemistry; test system = 5xFAD mice, brain; setting = intraperitoneal, 10 mg/kg daily, 2 months; scale = reference: vehicle; endpoint = amyloid plaque area; result = decreased
